{"data": "Measured values from different studies", "note": "Each line is one published result; not all experiments were run side by side. Numbers after ± are the reported error."}
{"SMILES": "CC[C@H](C)[C@H](NC(=O)[C@H](Cc1ccccc1)NC(=O)[C@H](CCC(=O)O)NC(=O)[C@H](CCCCNC(=O)COCCOCCNC(=O)COCCOCCNC(=O)CC[C@H](NC(=O)CCCCCCCCCCCCCCCCC(=O)O)C(=O)O)NC(=O)[C@H](C)NC(=O)[C@H](C)NC(=O)[C@H](CCC(N)=O)NC(=O)CNC(=O)[C@H](CCC(=O)O)NC(=O)[C@H](CC(C)C)NC(=O)[C@H](Cc1ccc(O)cc1)NC(=O)[C@H](CO)NC(=O)[C@H](CO)NC(=O)[C@@H](NC(=O)[C@H](CC(=O)O)NC(=O)[C@H](CO)NC(=O)[C@@H](NC(=O)[C@H](Cc1ccccc1)NC(=O)[C@@H](NC(=O)CNC(=O)[C@H](CCC(=O)O)NC(=O)C(C)(C)NC(=O)[C@@H](N)Cc1cnc[nH]1)[C@@H](C)O)[C@@H](C)O)C(C)C)C(=O)N[C@@H](C)C(=O)N[C@@H](Cc1c[nH]c2ccccc12)C(=O)N[C@@H](CC(C)C)C(=O)N[C@H](C(=O)N[C@@H](CCCNC(=N)N)C(=O)NCC(=O)N[C@@H](CCCNC(=N)N)C(=O)NCC(=O)O)C(C)C", "assay": "QT interval corrected for heart rate, 12-lead Holter ECG", "system": "healthy human subjects", "conditions": "subcutaneous, 1.5 mg once weekly, 42 h post-dose, steady state", "scale": "reference: placebo, time-matched baseline", "endpoint": "placebo-subtracted change in QTcI", "result": "-7.4 ms"}
{"SMILES": "CC(=O)O[C@H]1C(=O)[C@@]2(C)[C@H]([C@H](OC(=O)c3ccccc3)[C@]3(O)C[C@H](OC(=O)[C@H](O)[C@@H](NC(=O)c4ccccc4)c4ccccc4)C(C)=C1C3(C)C)[C@]1(OC(C)=O)CO[C@@H]1C[C@@H]2O", "assay": "item: lymphocyte count decreased", "system": "patients with advanced solid tumours", "conditions": "intravenous, dose not given, phase Ib, related to compound", "endpoint": "adverse events, all grades", "result": "33%"}
{"SMILES": "CC(C)[C@H](N)C(=O)NCCCS(=O)(=O)O", "system": "human both sexes, plasma", "conditions": "oral, 265 mg once daily, day 1, fed tablet", "endpoint": "AUC(0-12)", "result": "10300 ng·h/mL"}
{"SMILES": "CSCC(NS(=O)(=O)c1cnccc1C(=O)O)c1ccccc1Cl (stereo not shown)", "assay": "colloidal aggregate formation, dynamic light scattering", "system": "50 mM potassium phosphate buffer", "conditions": "200 µM, pH 7.0, 1% DMSO", "scale": "higher = more aggregation", "endpoint": "DLS scattered light intensity", "result": "325000 counts/s"}
{"SMILES": "C[C@@]1(c2cc(NC(=O)c3ccc(C#N)cn3)ccc2F)C=CSC(N)=N1", "system": "young male humans, plasma", "conditions": "oral, 1 mg, single dose", "endpoint": "dose-normalised AUC(0-t)", "result": "61.6 ng·h/mL"}
{"SMILES": "COc1ccc(-n2nc(C(N)=O)c3c2C(=O)N(c2ccc(N4CCCCC4=O)cc2)CC3)cc1", "assay": "population PK model (NONMEM)", "system": "human, plasma", "conditions": "oral, final model", "endpoint": "CL renal/F", "result": "24.5 ± 2.13 mL/min"}
{"SMILES": "Nc1ccn([C@@H]2O[C@H](CO)[C@@H](O)C2(F)F)c(=O)n1", "assay": "item: dFdU", "system": "human, plasma", "conditions": "intravenous, 1000 mg/m^2, with: after paricalcitol", "endpoint": "Cmax, mean", "result": "8100 ng/mL"}
{"SMILES": "O=C(O)CC(CNS(=O)(=O)c1cccc(Cl)c1O)c1ccc(Br)s1 (stereo not shown)", "assay": "colloidal aggregate formation, dynamic light scattering", "system": "50 mM potassium phosphate buffer", "conditions": "200 µM, pH 7.0, 1% DMSO", "scale": "higher = more aggregation", "endpoint": "DLS scattered light intensity", "result": "586000 counts/s"}
{"SMILES": "C[C@@H](Oc1ccc(S(C)(=O)=O)cc1C(=O)N1C[C@@H]2C[C@]2(c2cc(C(F)(F)F)on2)C1)C(F)(F)F", "system": "human", "conditions": "oral plus intravenous microtracer, dose not given", "endpoint": "subjects with related eye disorders", "result": "16.7%"}
{"SMILES": "CNCCOC12CC3(C)CC(C)(CC(Cn4ncc(-c5ccc(N6CCc7cccc(C(=O)Nc8nc9ccccc9s8)c7C6)nc5C(=O)O)c4C)(C3)C1)C2", "system": "beagle dog, male, anaesthetised", "conditions": "intravenous bolus, 0.03 mg/kg, 75 min", "scale": "reference: baseline", "endpoint": "PR interval change", "result": "-4 ms"}
{"SMILES": "COc1cc(C(=O)N2CCC3(CC2)CC(=O)c2c(cnn2C(C)C)C3)cc(-c2ccc(C(=O)O)cc2)n1", "assay": "item: total cholesterol", "system": "human, fasting serum", "conditions": "10 mg every 12 h, day 13, adjusted geometric mean", "scale": "reference: baseline", "endpoint": "percentage change from baseline", "result": "-3.9%"}
{"SMILES": "CCOc1c([C@H](C)n2nc(C)c3c(N)ncnc32)cc(Cl)c(F)c1[C@@H]1CNC(=O)C1", "assay": "item: ΔQTcF > 60 ms", "system": "previously treated B-cell malignancy", "conditions": "oral, dose not given, all doses, overall population", "endpoint": "share of ECG observations", "result": "0.6%"}
{"SMILES": "CCOC(=O)/C(C#N)=C(\\O)c1ccc(NC(=O)c2cccs2)cc1", "assay": "haemolysis", "system": "sheep erythrocytes", "conditions": "1 h, pH 7.5", "endpoint": "HC50", "result": "> 128 µg/mL"}
{"SMILES": "N#Cc1ccc2c(c1)[C@H]1CCCN(C(=O)c3ccc4[nH]cnc4c3)[C@H]1C2", "system": "human females", "conditions": "160 mg, day 15", "endpoint": "SHBG level", "result": "30.9 nmol/L"}
{"SMILES": "CNC(=O)c1cc(Oc2ccc(NC(=O)Nc3cc(C(C)(C)C)nn3-c3ccc4ncccc4c3)c(F)c2)ccn1", "assay": "item: worst grade 1", "system": "human", "conditions": "oral, dose not given, cycles 1 and 2, Low Cmax subgroup", "endpoint": "patients with any AE of special interest", "result": "35%"}
{"SMILES": "Cc1cc(N2CCc3c(c(C)nn3CC34CCC(NC(=O)[C@@H]5COCCN5)(CC3)CC4)C2)c2cnn(C)c2n1", "assay": "LC-MS/MS", "system": "129/Sv mice", "conditions": "oral, 1.5 mg/kg, 3 h", "endpoint": "blood concentration", "result": "26 ± 27 nM"}
{"SMILES": "COc1ccc(-c2csc(NC(=O)c3ccc(C(=O)Nc4nc(-c5ccc(OC)c(OC)c5)cs4)s3)n2)cc1OC", "assay": "haemolysis", "system": "sheep erythrocytes", "conditions": "1 h, pH 7.5", "endpoint": "HC50", "result": "> 128 µg/mL"}
{"SMILES": "O=C(Nc1nc2cccc(-c3ccc(CN4CCS(=O)(=O)CC4)cc3)n2n1)C1CC1", "assay": "item: animal bite", "system": "human rheumatoid arthritis patients", "conditions": "oral, 75 mg once daily, 4 weeks, regardless of relatedness", "endpoint": "treatment-emergent adverse events", "result": "0%"}
{"SMILES": "CN1C[C@H](COc2nccc3c(NCc4ccco4)cc(Cl)nc23)OC1=O", "system": "rabbit, isolated Langendorff heart", "conditions": "dose not given", "endpoint": "effect on QRS", "result": "negative"}
{"SMILES": "CCN1/C(=C/C(C)=O)Sc2ccc(F)cc21", "system": "cynomolgus monkey", "conditions": "oral, 30 mg/kg, 24 h post-dose", "scale": "reference: pre-dose", "endpoint": "diastolic blood pressure change", "result": "99 ± 3.9%"}
{"SMILES": "CNC(=O)c1ccc(-c2cnc3ncc(Cc4ccc5ncccc5c4)n3n2)cc1F", "assay": "item: Dyspnea, all grades", "system": "hepatocellular carcinoma patients", "conditions": "oral, 600 mg twice daily, expansion cohort, any causality", "endpoint": "patients with adverse event", "result": "9%"}
{"SMILES": "Cc1ccc([C@@H]2O[C@H](CO)[C@@H](O)[C@H](O)[C@H]2O)cc1Cc1ccc(-c2ccc(F)cc2)s1", "system": "Japanese type 2 diabetes patients", "conditions": "25 mg, day 18, 24 h urine collection", "scale": "reference: baseline", "endpoint": "urinary potassium excretion change", "result": "-4.96 mEq"}
{"SMILES": "C=CC(=O)N1CCC(c2ccc(C(N)=O)c(-c3ccc(Oc4ccccc4)cc3)n2)CC1", "assay": "CTCAE 4.03", "system": "patients with relapsed/refractory MCL", "conditions": "oral, dose not given", "endpoint": "incidence of serious herpes zoster", "result": "0.9%"}
{"SMILES": "O=S(=O)(NCc1ccccc1OC(F)(F)F)c1cc(Cl)cc(Cl)c1O", "assay": "colloidal aggregate formation, dynamic light scattering", "system": "50 mM potassium phosphate buffer", "conditions": "200 µM, pH 7.0, 1% DMSO", "scale": "higher = more aggregation", "endpoint": "DLS scattered light intensity", "result": "849000 counts/s"}
{"SMILES": "CC(C)(C(=O)N1CCOc2c(C#N)cncc2C1)C(F)F", "assay": "item: Cardiac disorders", "system": "human", "conditions": "oral, 20 mg once daily, 14 days, multiple ascending dose", "endpoint": "subjects with adverse event", "result": "12.5%"}
{"SMILES": "Cc1noc(C)c1Cn1cc(N2C(=O)CN(Cc3cccc(O)c3)C2=O)cn1", "system": "pooled rat liver microsomes Sprague-Dawley", "conditions": "50 µM, 10 min, pH 7.4", "endpoint": "remaining parent", "result": "95 % peak area"}
{"SMILES": "CC(C)C[C@H](NC(=O)[C@@H](Cc1c[nH]c2ccccc12)NC(=O)[C@H](Cc1ccc(O)cc1)NC(=O)[C@H](CO)NC(=O)[C@H](Cc1c[nH]c2ccccc12)NC(=O)[C@H](Cc1c[nH]cn1)NC(=O)[C@@H]1CCC(=O)N1)C(=O)N[C@@H](CCCNC(=N)N)C(=O)N1CCC[C@H]1C(=O)NCC(N)=O", "system": "Chinese CPP children, overall", "conditions": "intramuscular, 22.5 mg, 12 months, day 1, month 6", "endpoint": "patients, grade ≥3 TEAEs", "result": "0%"}
{"SMILES": "CO[C@H]1CC[C@H](N2C(=O)CNc3ncc(-c4ccc(C(C)(C)O)nc4)nc32)CC1", "system": "patients, urine", "conditions": "oral, 45 mg, day -1, geometric mean", "endpoint": "urinary excretion Ae(0-24 h)", "result": "81300 ng"}
{"SMILES": "Cc1cc(-c2nccc3c2ccn3CC(=O)Nc2ccc(-c3cnccn3)cn2)ccn1", "system": "human", "conditions": "15 mg once daily, multiple ascending dose", "endpoint": "subjects with gastrointestinal disorders", "result": "11.1%"}
{"SMILES": "C[C@@H](N)C1CCN(S(=O)(=O)c2cccc3cnccc23)CC1", "system": "healthy volunteers", "conditions": "25 mg and 250 mg combined, fasted", "endpoint": "participants with serious TEAEs", "result": "0%"}
{"SMILES": "Cc1nnc(SCC2=C(C(=O)O)N3C(=O)[C@@H](NC(=O)Cn4cnnn4)[C@H]3SC2)s1", "system": "human whole blood", "conditions": "concentration not given, 8 h, 4 °C", "endpoint": "deviation from nominal concentration", "result": "-5%"}
{"SMILES": "CC(C)(CC(=O)Nc1scc(C2CC2)c1C(=O)O)c1ccc(F)cc1", "assay": "colloidal aggregate formation, dynamic light scattering", "system": "50 mM potassium phosphate buffer", "conditions": "200 µM, pH 7.0, 1% DMSO", "scale": "higher = more aggregation", "endpoint": "DLS scattered light intensity", "result": "827000 counts/s"}
{"SMILES": "COc1ccc2c(=O)n(C)c(-c3ccccc3)nc2c1", "system": "male Sprague-Dawley rat, testis", "conditions": "oral, 30 mg/kg, 0.25 h", "scale": "reference: testis over plasma", "endpoint": "tissue/plasma ratio", "result": 0.8}
{"SMILES": "Cc1ccc(C)c(OCCCC(C)(C)C(=O)O)c1", "system": "human, plasma", "conditions": "oral, dose not given, day 17 predose, mean", "endpoint": "trough plasma concentration", "result": "1810 ng/mL"}
{"SMILES": "O=c1[nH]c(=O)n([C@H]2C[C@H](O)[C@@H](CO)O2)cc1CCCCC[18F]", "system": "CD-1 nu/nu male mice, RG2 tumour, blood", "conditions": "intravenous, dose not given, 2 h, co-injection", "endpoint": "blood concentration", "result": "0.16 ± 0.05 %ID/g"}
{"SMILES": "O=C(O)CCC(=O)O.[2H]C([2H])([2H])Oc1cc(C)c2[nH]ccc2c1CN1CC[C@@H](C2CC2)C[C@H]1c1ccc(C(=O)O)cc1", "assay": "multiple ascending dose", "system": "healthy Chinese subjects", "conditions": "125 mg twice daily", "endpoint": "subjects with TEAE Constipation", "result": "25%"}
{"SMILES": "CCCCC1=NC2(CCCC2)C(=O)N1Cc1ccc(-c2ccccc2S(=O)(=O)Nc2noc(C)c2C)c(COCC)c1", "system": "healthy adult volunteers, plasma", "conditions": "oral, 800 mg, single dose, fed, crushed tablet", "endpoint": "Cmax", "result": "17300 ng/mL"}
